Results of several laboratories.
Parts stem from different laboratories: compare values within a part only.
UniProt P10721, sequence (whole entry, looked up): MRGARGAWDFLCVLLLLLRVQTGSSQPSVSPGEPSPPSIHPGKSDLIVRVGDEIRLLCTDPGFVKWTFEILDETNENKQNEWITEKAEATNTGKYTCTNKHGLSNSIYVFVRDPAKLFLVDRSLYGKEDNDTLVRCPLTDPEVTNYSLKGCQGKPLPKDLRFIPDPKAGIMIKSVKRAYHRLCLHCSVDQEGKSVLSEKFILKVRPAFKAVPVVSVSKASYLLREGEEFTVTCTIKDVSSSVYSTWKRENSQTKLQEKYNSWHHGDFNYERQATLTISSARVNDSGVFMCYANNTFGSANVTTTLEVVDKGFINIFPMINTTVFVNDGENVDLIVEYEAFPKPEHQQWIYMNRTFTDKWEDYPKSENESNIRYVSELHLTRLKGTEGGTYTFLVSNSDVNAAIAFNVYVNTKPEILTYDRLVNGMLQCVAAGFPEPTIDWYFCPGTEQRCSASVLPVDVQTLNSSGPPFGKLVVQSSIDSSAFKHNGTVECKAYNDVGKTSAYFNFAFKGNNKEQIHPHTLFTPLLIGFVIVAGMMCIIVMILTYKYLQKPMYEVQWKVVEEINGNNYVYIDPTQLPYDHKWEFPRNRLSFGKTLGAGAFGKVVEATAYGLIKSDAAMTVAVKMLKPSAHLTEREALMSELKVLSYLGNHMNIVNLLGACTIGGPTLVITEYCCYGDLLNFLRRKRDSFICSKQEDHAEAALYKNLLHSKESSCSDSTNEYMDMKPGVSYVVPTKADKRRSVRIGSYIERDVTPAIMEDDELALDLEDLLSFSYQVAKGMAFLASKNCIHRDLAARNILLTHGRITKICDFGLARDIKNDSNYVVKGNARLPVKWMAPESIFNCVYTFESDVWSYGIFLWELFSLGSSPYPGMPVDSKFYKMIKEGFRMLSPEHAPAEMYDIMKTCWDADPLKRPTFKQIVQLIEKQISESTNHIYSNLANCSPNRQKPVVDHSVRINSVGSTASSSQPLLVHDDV
UniProt Q9P2K8, sequence (whole entry, unmodified, looked up): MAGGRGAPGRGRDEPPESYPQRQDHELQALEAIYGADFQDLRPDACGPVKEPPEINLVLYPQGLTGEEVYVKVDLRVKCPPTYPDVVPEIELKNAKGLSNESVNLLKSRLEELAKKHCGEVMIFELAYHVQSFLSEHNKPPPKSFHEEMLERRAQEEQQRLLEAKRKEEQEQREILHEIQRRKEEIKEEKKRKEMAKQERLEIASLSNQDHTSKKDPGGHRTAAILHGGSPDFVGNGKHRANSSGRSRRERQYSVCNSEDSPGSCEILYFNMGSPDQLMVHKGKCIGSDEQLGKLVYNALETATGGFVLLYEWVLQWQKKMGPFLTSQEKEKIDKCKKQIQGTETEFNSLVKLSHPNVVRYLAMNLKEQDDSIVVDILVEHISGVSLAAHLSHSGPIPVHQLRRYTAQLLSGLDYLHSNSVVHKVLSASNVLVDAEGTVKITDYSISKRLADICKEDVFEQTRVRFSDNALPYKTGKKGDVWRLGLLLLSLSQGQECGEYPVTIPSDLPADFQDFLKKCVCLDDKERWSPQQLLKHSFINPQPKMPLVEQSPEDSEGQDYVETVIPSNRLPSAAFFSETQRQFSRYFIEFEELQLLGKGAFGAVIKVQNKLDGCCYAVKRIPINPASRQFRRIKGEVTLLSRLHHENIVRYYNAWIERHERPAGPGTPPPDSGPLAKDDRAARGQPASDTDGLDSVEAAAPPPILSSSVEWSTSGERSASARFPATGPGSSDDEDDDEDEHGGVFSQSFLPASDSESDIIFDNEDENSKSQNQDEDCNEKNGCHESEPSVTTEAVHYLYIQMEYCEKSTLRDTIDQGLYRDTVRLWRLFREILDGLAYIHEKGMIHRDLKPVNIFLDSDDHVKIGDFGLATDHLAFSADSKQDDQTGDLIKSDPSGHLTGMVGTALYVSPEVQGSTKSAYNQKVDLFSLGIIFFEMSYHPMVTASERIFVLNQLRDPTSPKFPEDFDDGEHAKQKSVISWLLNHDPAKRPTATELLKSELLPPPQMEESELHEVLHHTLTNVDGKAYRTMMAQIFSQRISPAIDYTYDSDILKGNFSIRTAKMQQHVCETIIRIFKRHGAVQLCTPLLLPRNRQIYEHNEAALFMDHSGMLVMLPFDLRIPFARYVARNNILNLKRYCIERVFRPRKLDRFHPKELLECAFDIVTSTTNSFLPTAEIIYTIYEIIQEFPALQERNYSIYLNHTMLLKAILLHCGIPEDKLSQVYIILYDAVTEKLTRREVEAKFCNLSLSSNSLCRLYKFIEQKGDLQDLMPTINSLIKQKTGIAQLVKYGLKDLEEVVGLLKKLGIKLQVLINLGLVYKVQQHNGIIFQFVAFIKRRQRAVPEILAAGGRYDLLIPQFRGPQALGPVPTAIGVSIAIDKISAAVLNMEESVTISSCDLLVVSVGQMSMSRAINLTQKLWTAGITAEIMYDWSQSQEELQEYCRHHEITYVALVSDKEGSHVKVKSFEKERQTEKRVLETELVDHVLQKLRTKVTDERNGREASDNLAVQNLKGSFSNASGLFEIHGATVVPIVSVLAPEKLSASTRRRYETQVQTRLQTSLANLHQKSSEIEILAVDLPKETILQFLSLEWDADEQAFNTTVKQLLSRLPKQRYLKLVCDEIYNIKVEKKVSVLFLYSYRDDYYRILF
UniProt Q8IU85, sequence (whole entry, looked up): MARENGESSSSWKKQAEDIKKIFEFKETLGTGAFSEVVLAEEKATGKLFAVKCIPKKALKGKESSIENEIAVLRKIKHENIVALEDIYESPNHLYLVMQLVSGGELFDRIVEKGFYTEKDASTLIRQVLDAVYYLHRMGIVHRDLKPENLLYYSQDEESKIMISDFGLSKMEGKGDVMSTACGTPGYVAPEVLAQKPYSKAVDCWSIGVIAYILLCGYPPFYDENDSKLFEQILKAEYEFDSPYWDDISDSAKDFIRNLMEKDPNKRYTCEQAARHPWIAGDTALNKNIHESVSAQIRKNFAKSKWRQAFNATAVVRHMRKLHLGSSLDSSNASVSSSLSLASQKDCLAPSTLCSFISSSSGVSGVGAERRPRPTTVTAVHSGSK
UniProt O75747, sequence (whole entry, looked up): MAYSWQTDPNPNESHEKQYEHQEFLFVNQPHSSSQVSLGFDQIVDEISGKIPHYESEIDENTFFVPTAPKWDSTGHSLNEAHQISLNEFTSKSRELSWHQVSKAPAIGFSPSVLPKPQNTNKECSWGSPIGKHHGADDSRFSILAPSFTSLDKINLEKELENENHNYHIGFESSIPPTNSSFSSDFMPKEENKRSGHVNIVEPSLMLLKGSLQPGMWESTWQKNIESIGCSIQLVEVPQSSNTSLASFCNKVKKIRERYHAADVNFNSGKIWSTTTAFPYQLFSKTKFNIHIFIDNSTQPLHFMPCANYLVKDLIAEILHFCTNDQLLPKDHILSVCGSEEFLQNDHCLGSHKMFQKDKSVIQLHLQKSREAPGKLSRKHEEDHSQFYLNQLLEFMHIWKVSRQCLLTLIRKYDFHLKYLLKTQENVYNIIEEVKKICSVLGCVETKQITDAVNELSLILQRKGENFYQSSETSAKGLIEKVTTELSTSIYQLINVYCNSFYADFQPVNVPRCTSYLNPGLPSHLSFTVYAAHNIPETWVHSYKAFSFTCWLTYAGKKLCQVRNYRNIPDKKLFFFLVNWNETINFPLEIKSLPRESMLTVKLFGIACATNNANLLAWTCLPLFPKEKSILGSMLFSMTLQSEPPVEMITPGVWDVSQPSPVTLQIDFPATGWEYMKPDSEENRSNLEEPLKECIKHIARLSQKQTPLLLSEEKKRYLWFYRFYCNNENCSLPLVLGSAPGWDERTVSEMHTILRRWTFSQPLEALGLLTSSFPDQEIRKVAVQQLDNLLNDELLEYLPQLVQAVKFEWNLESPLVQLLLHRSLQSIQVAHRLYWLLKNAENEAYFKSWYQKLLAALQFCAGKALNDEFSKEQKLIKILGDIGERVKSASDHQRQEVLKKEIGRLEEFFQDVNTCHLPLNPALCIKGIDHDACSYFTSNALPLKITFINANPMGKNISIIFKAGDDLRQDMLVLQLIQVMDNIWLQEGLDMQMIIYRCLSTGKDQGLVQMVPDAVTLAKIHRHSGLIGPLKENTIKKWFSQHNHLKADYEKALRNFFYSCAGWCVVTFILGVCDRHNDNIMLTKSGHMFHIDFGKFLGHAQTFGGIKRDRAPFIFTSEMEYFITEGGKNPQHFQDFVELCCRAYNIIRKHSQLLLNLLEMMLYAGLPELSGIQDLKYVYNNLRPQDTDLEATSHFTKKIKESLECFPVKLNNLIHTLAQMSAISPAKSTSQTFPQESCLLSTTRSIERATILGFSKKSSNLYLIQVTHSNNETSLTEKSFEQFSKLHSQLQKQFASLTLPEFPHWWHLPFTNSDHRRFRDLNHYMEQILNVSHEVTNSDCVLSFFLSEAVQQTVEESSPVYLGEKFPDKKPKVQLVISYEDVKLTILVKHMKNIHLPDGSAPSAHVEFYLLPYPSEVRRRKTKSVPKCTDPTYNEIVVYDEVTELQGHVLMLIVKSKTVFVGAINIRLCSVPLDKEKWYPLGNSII
UniProt P45983, sequence (whole entry, looked up): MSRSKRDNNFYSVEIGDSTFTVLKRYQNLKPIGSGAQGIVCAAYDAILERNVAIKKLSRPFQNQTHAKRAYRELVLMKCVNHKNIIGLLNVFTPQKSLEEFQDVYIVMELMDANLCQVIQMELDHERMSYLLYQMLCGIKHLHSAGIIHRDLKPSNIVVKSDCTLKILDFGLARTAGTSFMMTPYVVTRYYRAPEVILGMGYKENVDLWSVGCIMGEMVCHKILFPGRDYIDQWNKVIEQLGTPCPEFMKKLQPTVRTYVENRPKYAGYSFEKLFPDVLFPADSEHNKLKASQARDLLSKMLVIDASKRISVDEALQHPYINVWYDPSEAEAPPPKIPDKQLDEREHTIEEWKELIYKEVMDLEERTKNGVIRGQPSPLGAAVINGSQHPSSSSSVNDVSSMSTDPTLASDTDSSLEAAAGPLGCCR

Sample 1
Host: mouse
Sample: microsomes or S9
Concentration: 2 µM
Time: 0.5 h
Structure (SMILES)	remaining compound [%]
Cc1nnc2n1CCC(N(C)S(=O)(=O)c1cn(C)cn1)CC2 (centres unmarked)	89.6
Cc1ccc(-c2nccn3cc(C(=O)N(C)Cc4cn(C)nc4C)nc23)cc1	6.12
COC[C@@H]1[C@@H](NC(=O)c2c(OC)cc(=O)n3c2CCNCC3)[C@@H]2CCO[C@H]12	83.3
Cc1cc(C)[nH]/c(=N\N=C\C2=C(O)CC(C)CC2=O)n1 (centres unmarked)	35.2
Cc1nc2nc(CCc3ccccc3)nn2c(C)c1Cl	< 1
COC(=O)c1ccccc1NC(=O)c1c(OC)cc(=O)n2c1CCCC2	2.36
CC(C)COc1cc(=O)n2c(c1C(=O)NC1CCN(C)CC1)CCCCC2	79
CCC(C(=O)Nc1ccc(C(=O)O)cc1NC(=O)C(CC)c1ccccc1)c1ccccc1 (centres unmarked)	77.9
Cc1nc2ncnn2c(C)c1CCC(=O)OC1(C)CCC(C)(C)CC1	> 99.9
Cc1c(C(=O)Nc2cc(Cl)ccc2OCC2CCCO2)oc2c1C(=O)CC(C)(C)C2 (centres unmarked)	79.7
Oc1ccccc1Oc1ncc(Br)c(Cl)n1	54.8
CCc1ccc(C2=NN(c3ccc(S(N)(=O)=O)cc3)C(c3ccc(O)cc3)C2)cc1 (centres unmarked)	87
Cc1cccc(C(=O)/N=c2\c(C)cccn2C(=O)c2cccc(C)c2)c1	88.1
CC(C)COc1cc(=O)n2c(c1C(=O)NCCCN1CCOCC1)CCCCC2	62.5

Sample 2
SMILES: FC(F)(F)c1ccc2c(c1)nc(-c1cccnc1)n2C1CC1
Concentration: 1 µM
target	read-out	action	method	reference	remaining binding [%]
NUAK1 (Homo sapiens, UniProt O60285)	cell-free assay	–	competition with immobilised ligand	–	100
eIF-2-alpha kinase GCN2, C-terminal kinase domain (EIF2AK4, Homo sapiens, UniProt Q9P2K8, S808G)	cell-free assay	–	competition with immobilised ligand	–	93
CAMK1D (Homo sapiens, UniProt Q8IU85)	cell-free assay	–	competition with immobilised ligand	–	100
FGFR3 (Homo sapiens, UniProt P22607)	cell-free assay	–	competition with immobilised ligand	–	100
CDC42BPG (Homo sapiens, UniProt Q6DT37)	–	binder	KINOMEscan competition binding	DMSO	100
PIK3C2G (Homo sapiens, UniProt O75747)	cell-free assay	–	competition with immobilised ligand	–	100
FRK (Homo sapiens, UniProt P42685)	cell-free assay	–	competition with immobilised ligand	–	100
Ribosomal protein S6 kinase alpha-6, N-terminal kinase domain (RPS6KA6, Homo sapiens, UniProt Q9UK32)	cell-free assay	–	competition with immobilised ligand	–	100
PIK3CA (Homo sapiens, UniProt P42336, I800L)	cell-free assay	–	competition with immobilised ligand	–	99
Mast/stem cell growth factor receptor Kit, autoinhibited (KIT, Homo sapiens, UniProt P10721)	cell-free assay	–	competition with immobilised ligand	–	85
TLK2 (Homo sapiens, UniProt Q86UE8)	cell-free assay	–	competition with immobilised ligand	–	100
PIP4K2C (Homo sapiens, UniProt Q8TBX8)	cell-free assay	–	competition with immobilised ligand	–	100
MAP3K20 (Homo sapiens, UniProt Q9NYL2)	cell-free assay	–	competition with immobilised ligand	–	100
MAPK8 (Homo sapiens, UniProt P45983)	cell-free assay	–	competition with immobilised ligand	–	93

Sample 3
Target: Mast/stem cell growth factor receptor Kit (KIT, Homo sapiens, UniProt P10721)
Read-out: enzyme activity
Action: inhibitor
Concentration: 0.5 µM
Reference: control
Compound	remaining activity
Nc1cccc(-c2cc3c(Oc4cccc(O)c4)ncnc3[nH]2)c1	35.1%
COc1cc2c(cc1OC)-c1[nH]nc(Nc3cccc(F)c3)c1C2	27.9%
CCN(CC)CCNC(=O)c1c(C)[nH]c(/C=C2\C(=O)Nc3ccc(Cl)cc32)c1C	28.7%
c1ccc(-c2cnc(Nc3ccc(OCCN4CCCC4)cc3)s2)cc1	20.3%
O=C1c2ccccc2-c2n[nH]c3cccc1c23	81.9%
COc1cc2ncnc(Nc3cccc(Cl)c3)c2cc1OC	94%
Cn1nc2c3c(cccc31)C(=O)c1ccccc1-2	86.4%
Cc1nc2cc3nc(-c4cccs4)cnc3cc2n1C	40.4%
Cc1cn(-c2cc(NC(=O)c3ccc(C)c(Nc4nccc(-c5cccnc5)n4)c3)cc(C(F)(F)F)c2)cn1	55.2%
CN([C@@H](Cc1ccc(OS(=O)(=O)c2cccc3cnccc23)cc1)C(=O)N1CCN(c2ccccc2)CC1)S(=O)(=O)c1cccc2cnccc12	96.3%
N#C/C(=C\c1ccc(O)c(O)c1)C(=O)NCc1ccccc1	93.9%
CN(C)C[C@H]1CCn2c(c(C3=C(c4cn(C)c5ccccc45)C(=O)NC3=O)c3ccccc32)C1	92.7%
c1ccc(-c2[nH]ncc2-c2ccnc3ccccc23)nc1	93.5%
CCOc1nc(NC(=O)Cc2cc(OC)ccc2OC)cc(N)c1C#N	84.6%
O=C1C(Cl)=C(N2C(=O)CCC2=O)C(=O)c2ccccc21	84.7%
O=C(NC(NC(=S)Nc1ccc(F)c([N+](=O)[O-])c1)C(Cl)(Cl)Cl)C(c1ccccc1)c1ccccc1 (centres unmarked)	97.2%
COc1cc2ncnc(Nc3ccc(O)c(Br)c3)c2cc1OC	97.3%
N#Cc1c(NC(=O)c2cccc3ccccc23)sc2c1CCCC2	84.2%
CCN(CC)CCNC(=O)c1c(C)[nH]c(/C=C2\C(=O)Nc3ccc(F)cc32)c1C	8.74%
Cc1cc2ncc(-c3ccccc3)nc2cc1C	63.5%
CCN(CC)C(=O)c1ccc(Nc2nc(OCC3CCCCC3)c3[nH]cnc3n2)cc1	40.7%
Ic1cccc(CSc2nnc(-c3ccncc3)o2)c1	99.8%
O=c1cc(-c2cccc3c2Sc2ccccc2S3)oc(N2CCOCC2)c1	96.8%
O=C(Nc1cccc(Nc2nccc(Nc3cccc(C(F)(F)F)c3)n2)c1)C1CC1	86.1%

Sample 4
Cell line: mouse MPNST tumor cells
Method: high-content immunofluorescence imaging
Item: nuclear SOX9
Concentration: 10 µM
Time: 12 h
Setting: mean of 2 replicates
Reference: DMSO control
Reading: higher = more nuclear SOX9
SMILES	nuclear SOX9 intensity
C[C@H]1C[C@@H]2[C@H]([C@@H](O)C[C@@]3(C)[C@H]2CC[C@]3(O)C(=O)CO)[C@@]2(C)C=CC(=O)C=C12	74.5 % of DMSO
COc1ccc(-c2cnc(NCc3cccc(OC)c3)n2C)cc1	115 % of DMSO
OCc1ccc(-c2nn(Cc3ccccc3)c3ccccc23)o1	112 % of DMSO
CCCCN(CCCC)C(=O)CN1C[C@H](c2ccc3c(c2)OCO3)[C@@H](C(=O)O)[C@@H]1c1ccc(OC)cc1	96.1 % of DMSO
CC1(C)CCC(C)(C)c2cc(C3(c4ccc(C(=O)O)cc4)OCCO3)ccc21	99.4 % of DMSO
C[C@]12CCC(=O)C=C1CC[C@@H]1[C@@H]2C(=O)C[C@@]2(C)[C@H]1CC[C@]2(O)C(=O)CO	90.2 % of DMSO
COc1cc2nccc(Oc3ccc(NC(=O)Nc4ccc(F)cc4F)c(F)c3)c2cc1OC	195 % of DMSO
COc1cc2ncnc(Nc3ccc(O)c(Br)c3)c2cc1OC	86.5 % of DMSO
COc1ccc2cc([C@H](C)C(=O)O)ccc2c1	103 % of DMSO
CC(=O)[C@H]1CC[C@H]2[C@@H]3CC=C4C[C@@H](O)CC[C@]4(C)[C@H]3CC[C@]12C	94.2 % of DMSO

Excerpt of the above (sample 2):
target	read-out	action	method	reference	remaining binding [%]
CDC42BPG (Homo sapiens, UniProt Q6DT37)	–	binder	KINOMEscan competition binding	DMSO	100
TLK2 (Homo sapiens, UniProt Q86UE8)	cell-free assay	–	competition with immobilised ligand	–	100
eIF-2-alpha kinase GCN2, C-terminal kinase domain (EIF2AK4, Homo sapiens, UniProt Q9P2K8, S808G)	cell-free assay	–	competition with immobilised ligand	–	93
PIK3CA (Homo sapiens, UniProt P42336, I800L)	cell-free assay	–	competition with immobilised ligand	–	99
CAMK1D (Homo sapiens, UniProt Q8IU85)	cell-free assay	–	competition with immobilised ligand	–	100
MAPK8 (Homo sapiens, UniProt P45983)	cell-free assay	–	competition with immobilised ligand	–	93
FGFR3 (Homo sapiens, UniProt P22607)	cell-free assay	–	competition with immobilised ligand	–	100
Ribosomal protein S6 kinase alpha-6, N-terminal kinase domain (RPS6KA6, Homo sapiens, UniProt Q9UK32)	cell-free assay	–	competition with immobilised ligand	–	100
